Published values from different studies.
A part holds a random share of what one study measured.
Chain of UniProt P0C264 (whole entry, looked up): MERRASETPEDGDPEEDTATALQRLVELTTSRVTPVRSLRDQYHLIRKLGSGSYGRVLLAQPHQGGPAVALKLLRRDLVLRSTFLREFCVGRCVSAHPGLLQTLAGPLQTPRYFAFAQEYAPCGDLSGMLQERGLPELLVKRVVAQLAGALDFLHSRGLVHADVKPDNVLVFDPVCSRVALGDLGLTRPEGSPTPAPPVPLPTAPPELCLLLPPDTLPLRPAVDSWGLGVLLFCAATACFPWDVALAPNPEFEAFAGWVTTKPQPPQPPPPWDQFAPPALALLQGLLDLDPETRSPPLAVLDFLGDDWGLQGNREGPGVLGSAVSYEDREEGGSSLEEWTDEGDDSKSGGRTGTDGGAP
Chain of UniProt Q02779 (whole entry, looked up): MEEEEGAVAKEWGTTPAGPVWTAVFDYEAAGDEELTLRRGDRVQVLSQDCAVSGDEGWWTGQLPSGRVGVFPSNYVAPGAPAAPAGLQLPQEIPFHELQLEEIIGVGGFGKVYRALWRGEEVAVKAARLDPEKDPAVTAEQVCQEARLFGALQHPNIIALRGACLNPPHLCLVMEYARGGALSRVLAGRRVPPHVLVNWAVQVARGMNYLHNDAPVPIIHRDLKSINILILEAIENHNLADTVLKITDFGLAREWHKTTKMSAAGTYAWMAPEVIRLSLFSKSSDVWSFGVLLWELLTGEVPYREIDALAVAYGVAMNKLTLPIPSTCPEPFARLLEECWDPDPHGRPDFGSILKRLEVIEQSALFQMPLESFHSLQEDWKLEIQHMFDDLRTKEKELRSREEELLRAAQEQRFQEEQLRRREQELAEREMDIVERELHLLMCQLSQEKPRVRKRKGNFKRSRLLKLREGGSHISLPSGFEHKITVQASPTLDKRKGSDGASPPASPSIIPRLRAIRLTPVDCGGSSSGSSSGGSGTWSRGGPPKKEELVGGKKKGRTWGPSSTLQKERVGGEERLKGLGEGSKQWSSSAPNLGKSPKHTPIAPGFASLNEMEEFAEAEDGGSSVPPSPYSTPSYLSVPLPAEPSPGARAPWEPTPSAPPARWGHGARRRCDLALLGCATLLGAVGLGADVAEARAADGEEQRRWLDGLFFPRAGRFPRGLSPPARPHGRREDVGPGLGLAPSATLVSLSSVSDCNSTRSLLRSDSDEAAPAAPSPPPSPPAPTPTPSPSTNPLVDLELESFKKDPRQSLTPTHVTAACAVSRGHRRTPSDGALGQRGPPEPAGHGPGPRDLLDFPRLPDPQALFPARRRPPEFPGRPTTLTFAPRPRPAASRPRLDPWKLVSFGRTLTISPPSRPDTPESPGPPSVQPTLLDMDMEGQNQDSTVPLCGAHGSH
Chain of UniProt O43283 (whole entry, looked up): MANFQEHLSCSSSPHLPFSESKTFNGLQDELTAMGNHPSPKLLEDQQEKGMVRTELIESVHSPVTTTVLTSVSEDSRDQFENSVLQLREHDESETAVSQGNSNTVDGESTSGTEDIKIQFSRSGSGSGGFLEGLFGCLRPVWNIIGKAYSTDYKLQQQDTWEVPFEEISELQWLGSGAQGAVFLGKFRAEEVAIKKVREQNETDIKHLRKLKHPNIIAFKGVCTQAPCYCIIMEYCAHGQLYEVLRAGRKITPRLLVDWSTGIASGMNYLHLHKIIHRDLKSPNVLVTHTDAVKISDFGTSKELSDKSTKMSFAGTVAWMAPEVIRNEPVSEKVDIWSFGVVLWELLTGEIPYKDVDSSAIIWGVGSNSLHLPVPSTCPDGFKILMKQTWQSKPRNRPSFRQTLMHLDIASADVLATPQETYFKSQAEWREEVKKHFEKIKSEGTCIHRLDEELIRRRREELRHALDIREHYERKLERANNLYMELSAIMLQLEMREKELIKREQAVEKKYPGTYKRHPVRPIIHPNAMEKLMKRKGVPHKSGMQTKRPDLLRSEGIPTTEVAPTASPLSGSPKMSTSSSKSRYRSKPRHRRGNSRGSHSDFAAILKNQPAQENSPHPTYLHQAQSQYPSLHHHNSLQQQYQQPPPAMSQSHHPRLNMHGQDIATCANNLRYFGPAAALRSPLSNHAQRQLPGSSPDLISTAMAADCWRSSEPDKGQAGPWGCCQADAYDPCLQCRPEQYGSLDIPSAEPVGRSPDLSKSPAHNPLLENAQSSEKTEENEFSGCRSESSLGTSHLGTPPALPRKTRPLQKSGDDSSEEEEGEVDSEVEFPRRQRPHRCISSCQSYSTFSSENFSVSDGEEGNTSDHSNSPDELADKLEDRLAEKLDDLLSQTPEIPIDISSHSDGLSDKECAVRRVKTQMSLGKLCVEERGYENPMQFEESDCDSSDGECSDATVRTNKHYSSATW
Chain of UniProt Q15208 (whole entry, looked up): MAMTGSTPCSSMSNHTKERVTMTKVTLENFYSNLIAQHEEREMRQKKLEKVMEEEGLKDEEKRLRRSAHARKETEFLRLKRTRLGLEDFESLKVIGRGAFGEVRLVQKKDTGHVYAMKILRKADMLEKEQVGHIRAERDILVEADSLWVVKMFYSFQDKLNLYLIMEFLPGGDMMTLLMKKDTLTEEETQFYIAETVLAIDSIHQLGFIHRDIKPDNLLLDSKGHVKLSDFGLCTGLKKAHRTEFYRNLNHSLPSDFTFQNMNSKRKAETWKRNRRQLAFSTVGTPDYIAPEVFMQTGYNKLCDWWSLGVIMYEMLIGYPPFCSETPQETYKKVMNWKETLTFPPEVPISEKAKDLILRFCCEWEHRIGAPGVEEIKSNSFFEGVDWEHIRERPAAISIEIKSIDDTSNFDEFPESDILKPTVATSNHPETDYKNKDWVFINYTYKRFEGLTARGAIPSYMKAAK

Sample 1 — read-out: enzyme activity; mode: inhibitor; tested at: 0.5 µM; relative to: control
Target: Platelet-derived growth factor receptor beta (PDGFRB, Homo sapiens, UniProt P09619)
Chain of UniProt P09619 (whole entry, looked up): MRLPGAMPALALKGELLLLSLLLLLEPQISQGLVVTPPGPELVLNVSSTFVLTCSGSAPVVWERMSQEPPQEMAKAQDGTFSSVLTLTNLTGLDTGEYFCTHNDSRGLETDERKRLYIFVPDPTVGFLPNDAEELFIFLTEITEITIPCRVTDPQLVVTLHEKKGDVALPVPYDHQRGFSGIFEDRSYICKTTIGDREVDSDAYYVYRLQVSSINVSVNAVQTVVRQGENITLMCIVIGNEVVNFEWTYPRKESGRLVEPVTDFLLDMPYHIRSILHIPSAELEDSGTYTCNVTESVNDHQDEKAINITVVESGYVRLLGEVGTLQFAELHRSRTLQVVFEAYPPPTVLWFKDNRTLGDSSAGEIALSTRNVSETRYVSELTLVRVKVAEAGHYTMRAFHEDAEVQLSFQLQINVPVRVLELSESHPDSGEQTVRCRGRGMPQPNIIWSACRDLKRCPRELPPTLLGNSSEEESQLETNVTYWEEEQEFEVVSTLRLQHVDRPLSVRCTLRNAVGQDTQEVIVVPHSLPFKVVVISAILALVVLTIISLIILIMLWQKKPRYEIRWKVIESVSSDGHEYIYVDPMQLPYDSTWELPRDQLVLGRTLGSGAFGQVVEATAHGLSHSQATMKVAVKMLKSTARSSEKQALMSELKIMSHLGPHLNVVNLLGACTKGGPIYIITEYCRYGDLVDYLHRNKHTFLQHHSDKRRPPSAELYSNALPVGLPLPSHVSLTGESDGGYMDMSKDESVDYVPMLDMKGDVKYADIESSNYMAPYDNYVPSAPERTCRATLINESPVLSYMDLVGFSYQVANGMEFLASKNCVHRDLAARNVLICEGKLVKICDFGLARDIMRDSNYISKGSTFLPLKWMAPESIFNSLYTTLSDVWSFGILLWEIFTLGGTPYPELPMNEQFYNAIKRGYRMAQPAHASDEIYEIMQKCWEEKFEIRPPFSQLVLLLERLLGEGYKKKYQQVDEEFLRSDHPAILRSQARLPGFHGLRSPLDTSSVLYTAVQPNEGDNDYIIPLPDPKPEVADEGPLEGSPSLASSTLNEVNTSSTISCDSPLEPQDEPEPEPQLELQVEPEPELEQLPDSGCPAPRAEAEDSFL
SMILES | remaining activity [%]
O=C(Nc1ccc(Cl)cc1)c1ccccc1NCc1ccncc1 | 45
C[S+]([O-])c1ccc(-c2nc(-c3ccncc3)c(-c3ccc(F)cc3)[nH]2)cc1 (centres unmarked) | 103
Cc1nc(Nc2ncc(C(=O)Nc3c(C)cccc3Cl)s2)cc(N2CCN(CCO)CC2)n1 | 2.48
CS(=O)(=O)CCNCc1ccc(-c2ccc3ncnc(Nc4ccc(OCc5cccc(F)c5)c(Cl)c4)c3c2)o1 | 92
CCOc1cc2ncnc(Nc3cccc(Br)c3)c2cc1OCC | 94.8
CCN1/C(=C/C(C)=O)Sc2ccc(OC)cc21 | 107
Cn1cc(/C=C2\C(=O)Nc3ccc(S(N)(=O)=O)cc32)c2ccccc21 | 66
O=C1NC(=O)/C(=C/c2ccc3nccnc3c2)S1 | 99.5
COc1ccc(-c2cnc3c(-c4ccsc4)cnn3c2)cc1 | 63.4
Nc1[nH]nc2nnc(-c3c(-c4ccccc4)nn4ccccc34)cc12 | 114
CC(=O)O/N=C1/C(c2c(O)[nH]c3cc(Br)ccc23)=Nc2ccccc21 | 51.6
CC(C)c1nn(-c2c(Cl)cccc2Cl)c2nc(Cc3ccc(OCCO)cc3)[nH]c(=O)c12 | 98.9
COc1cc2ncnc(Nc3ccc(OCc4ccccc4)cc3)c2cc1OC | 93
CN(C)CCCn1cc(C2=C(c3c[nH]c4ccccc34)C(=O)NC2=O)c2ccccc21 | 78.1
COc1ccc(Cl)cc1NC(=O)Nc1cc(C)nc2ccccc12 | 105
Cn1cnc2cc3c(Nc4cccc(Br)c4)ncnc3cc21 | 99.7
COc1cc2ncc(-c3ccccc3)nc2cc1OC | 87.5
O=c1cc(N2CCOCC2)oc2c1ccc1ccccc12 | 111
CC(C)[C@H](CO)Nc1nc(Nc2cccc(Cl)c2)c2ncn(C(C)C)c2n1 | 106
CCC(=O)Nc1ccc2ncnc(Nc3cccc(Br)c3)c2c1 | 98

Sample 2 — mode: inhibitor; tested at: 1 µM
Structure (SMILES): CC#CC(=O)N1CCC[C@H]1c1nc(-c2ccc(C(=O)Nc3ccccn3)cc2)c2c(N)nccn12
target | read-out | inhibition [%]
MAP3K10 (Homo sapiens, UniProt Q02779) | enzyme activity | 33
CSNK2A2 (Homo sapiens, UniProt P19784) | enzyme activity | 7
FGFR3 (Homo sapiens, UniProt P22607, G697C) | enzyme activity | 15
TIE1 (Homo sapiens, UniProt P35590) | enzyme activity | 12
FLT3 (Homo sapiens, UniProt P36888, D835V/ITD) | enzyme activity | 0
PIM3 (Homo sapiens, UniProt Q86V86) | enzyme activity | 0
HIPK2 (Homo sapiens, UniProt Q9H2X6) | enzyme activity | 0
Ribosomal protein S6 kinase alpha-3, C-terminal kinase domain (RPS6KA3, Homo sapiens, UniProt P51812) | – | 0
SBK3 (Homo sapiens, UniProt P0C264) | enzyme activity | 15
STK38 (Homo sapiens, UniProt Q15208) | enzyme activity | 4
MAP3K13 (Homo sapiens, UniProt O43283) | enzyme activity | 37
CSNK1A1L (Homo sapiens, UniProt Q8N752) | enzyme activity | 0
MYLK2 (Homo sapiens, UniProt Q9H1R3) | enzyme activity | 0
SGK2 (Homo sapiens, UniProt Q9HBY8) | enzyme activity | 0
Non-receptor tyrosine-protein kinase TYK2, JH2 pseudokinase domain (TYK2, Homo sapiens, UniProt P29597) | – | 0
AAK1 (Homo sapiens, UniProt Q2M2I8) | enzyme activity | 0
TLK1 (Homo sapiens, UniProt Q9UKI8) | enzyme activity | 8

Sample 3 — read-out: enzyme activity; mode: inhibitor; tested at: 10 µM
Target: Calcium/calmodulin-dependent protein kinase type II subunit alpha (CAMK2A, Homo sapiens, UniProt Q9UQM7)
Chain of UniProt Q9UQM7 (whole entry, looked up): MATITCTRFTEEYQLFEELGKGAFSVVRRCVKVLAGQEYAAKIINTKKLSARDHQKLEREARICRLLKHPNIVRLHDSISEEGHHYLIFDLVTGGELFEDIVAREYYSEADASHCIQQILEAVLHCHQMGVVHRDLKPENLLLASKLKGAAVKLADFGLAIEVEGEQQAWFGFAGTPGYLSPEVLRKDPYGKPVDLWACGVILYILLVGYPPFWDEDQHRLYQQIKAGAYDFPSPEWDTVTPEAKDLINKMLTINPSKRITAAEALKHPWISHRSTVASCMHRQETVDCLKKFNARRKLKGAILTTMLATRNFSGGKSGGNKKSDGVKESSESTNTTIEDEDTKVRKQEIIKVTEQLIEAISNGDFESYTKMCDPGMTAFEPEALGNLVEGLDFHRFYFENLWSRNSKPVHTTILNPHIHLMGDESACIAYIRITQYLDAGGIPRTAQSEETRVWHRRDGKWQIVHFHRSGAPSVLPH
SMILES | inhibition [%]
CCCCCCCCCCCCCCCC(=O)OC | 11
COc1cc(/C=C/c2ccc(O)cc2)cc(OC)c1 | -32
CCc1c2c(nc3ccc(O)cc13)-c1cc3c(c(=O)n1C2)COC(=O)[C@]3(O)CC | -3
C=CC(C)(CCC=C(C)C)OC(C)=O (centres unmarked) | -63
C[C@H](CC[C@@H](O[C@@H]1O[C@H](CO)[C@@H](O)[C@H](O)[C@H]1O[C@@H]1O[C@H](CO)[C@@H](O)[C@H](O)[C@H]1O)C(C)(C)O)[C@H]1CC[C@@]2(C)[C@H]3CC=C4[C@@H](CC[C@H](O[C@@H]5O[C@H](CO[C@@H]6O[C@H](CO)[C@@H](O)[C@H](O)[C@H]6O)[C@@H](O)[C@H](O)[C@H]5O)C4(C)C)[C@]3(C)[C@H](O)C[C@]12C | -31
O=C(N[C@@H](Cc1ccccc1)C(=O)N[C@H](CO)Cc1ccccc1)c1ccccc1 | -45
CCOC(=O)C1=C[C@]2(CC)CCCN3CCc4c(n1c1ccccc41)[C@@H]32 | 10

Sample 4 — read-out: binding; method: radioligand binding; tested at: 10 µM
Target: Alpha-1D adrenergic receptor (ADRA1D, Homo sapiens, UniProt P25100)
Chain of UniProt P25100 (whole entry, looked up): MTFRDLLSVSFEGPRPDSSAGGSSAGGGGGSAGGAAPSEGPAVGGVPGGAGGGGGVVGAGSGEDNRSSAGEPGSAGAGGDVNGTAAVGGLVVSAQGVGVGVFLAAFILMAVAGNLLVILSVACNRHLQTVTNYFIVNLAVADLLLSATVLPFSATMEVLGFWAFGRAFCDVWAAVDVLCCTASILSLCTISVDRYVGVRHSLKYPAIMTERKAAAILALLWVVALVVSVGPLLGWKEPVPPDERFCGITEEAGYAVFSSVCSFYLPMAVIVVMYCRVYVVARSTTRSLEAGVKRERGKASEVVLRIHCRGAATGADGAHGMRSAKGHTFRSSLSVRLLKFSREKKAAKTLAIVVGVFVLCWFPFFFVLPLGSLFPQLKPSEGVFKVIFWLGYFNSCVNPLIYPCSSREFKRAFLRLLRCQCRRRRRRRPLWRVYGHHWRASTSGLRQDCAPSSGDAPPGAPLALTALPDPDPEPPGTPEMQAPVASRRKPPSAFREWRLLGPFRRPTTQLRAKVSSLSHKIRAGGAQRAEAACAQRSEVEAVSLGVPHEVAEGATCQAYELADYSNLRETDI
Structure (SMILES) | inhibition [%]
O=C1c2ccc(Nc3ccc(F)cc3F)cc2CCc2ccc(OC[C@H](O)CO)cc21 | 19.5
COc1cc(-c2cn(C3CCc4ccccc4N(CC(F)(F)F)C3=O)nn2)ccc1-n1ccc(C)n1 (centres unmarked) | -17.3
CNC(=O)Nc1ccc2c(c1)[C@]1(CC2)OC(=O)N(CC(=O)N(Cc2ccc(F)cc2)[C@@H](C)C(F)(F)F)C1=O | 9.73
CC(C)CC(=O)N1CCc2nc(-c3ccc(Br)cc3)nc(N(C)Cc3ccccc3)c2C1 | -22.3
Cc1cc(C)c(-n2ccn3nc(-c4cccnc4)cc23)cc1NC(=O)c1cc(C#N)cc(S(F)(F)(F)(F)F)c1 | -2.46
Cc1nccc(COC(=O)N2C[C@@H]3[C@@H](CNC(=O)c4ccc5[nH]nnc5c4)[C@@H]3C2)n1 | -6.43
CC1=C(C#N)C(c2ccc3c(c2)c(NC(=O)c2ccccc2C)nn3C)C(C#N)=C(C)N1 | 4.71
Cc1cc(-n2nc(Cc3cc(F)cc(C(F)(F)F)c3)nc2C)ccc1C(N)=O | 3.15
CC(=O)Nc1nc(CN2CCC[C@H](Cc3cc(C)nc(C)c3)C2)cs1 | 7.45
CC(=O)Nc1c(F)cc(C(=O)N[C@H]2CC[C@H](O)CC2)cc1O[C@@H](C)c1ccccc1 | -6.01
Nc1c(C(=O)NCc2ccc(C(=O)NCCCC3CCCCC3)cc2)cnn1-c1ccccc1 | 22
CC1=C(C#N)[C@@H](c2ccc3[nH]nc(C)c3c2)C(C#N)=C(c2ccc(Cl)cc2)N1 | 7.73
CC(C)(O)c1cncc(-c2nc3ccc(F)cc3n2C2CC2)c1 | 2.58
Cc1nc(Cc2cccc(C(F)(F)F)c2)sc1-c1ccc(C(N)=O)nc1 | -5.68
CS(=O)(=O)NCC[C@H](NC(=O)c1cncc2c1cnn2-c1ccc(F)cc1)c1ccnc(S(C)(=O)=O)c1 | -9.49
CN1C(=O)[C@@H](N2CCc3cn(Cc4ccccc4)nc3C2=O)COc2ccccc21 | -0.3
O=C(NC[C@@H]1[C@H]2CN(C(=O)OCc3cc(C(F)(F)F)cc(C(F)(F)F)c3)C[C@@H]12)c1ccc2[nH]nnc2c1 | -1.41
Cc1c[nH]c2nccc(Oc3c(F)cc(Nc4cc(Cl)nc(N)n4)cc3F)c12 | -11.6
CN(C)C(=O)Cn1cc(-c2nc([C@@](C)(c3ccc(-c4cnc(N)nc4)cc3)C3CC3)no2)cn1 | -3.06
COCc1nc2cnc3cc(-c4c(C)noc4C)c(OC[C@H]4CCNC4)cc3c2n1[C@H](C)c1ccccc1 | 17
CN1CCN(C(=O)C(C)(C)c2ccc(C(=O)Nc3cn4cc(-c5ccncc5)ccc4n3)cc2)CC1 | -12.4

For quick reference, copied from above (sample 1):
SMILES | remaining activity [%]
Cn1cc(/C=C2\C(=O)Nc3ccc(S(N)(=O)=O)cc32)c2ccccc21 | 66
O=C(Nc1ccc(Cl)cc1)c1ccccc1NCc1ccncc1 | 45
Nc1[nH]nc2nnc(-c3c(-c4ccccc4)nn4ccccc34)cc12 | 114
COc1ccc(-c2cnc3c(-c4ccsc4)cnn3c2)cc1 | 63.4
CS(=O)(=O)CCNCc1ccc(-c2ccc3ncnc(Nc4ccc(OCc5cccc(F)c5)c(Cl)c4)c3c2)o1 | 92
CC(=O)O/N=C1/C(c2c(O)[nH]c3cc(Br)ccc23)=Nc2ccccc21 | 51.6
